Assay results pooled from the literature.
Compare with care: the assays were run in different laboratories. Numbers after ± are the reported error.

| Compound | assay | test system | setting | AUC(0-inf) |
| --- | --- | --- | --- | --- |
| COc1ccsc1CNCC[C@@]1(c2ccccn2)CCOC2(CCCC2)C1 | – | healthy human, normal renal function, plasma | intravenous, 1 mg single dose, geometric mean | 0.0181 µg·h/mL |
| Oc1ccc2cc3ccc4cccc5ccc(c2c1)c3c45 | UPLC-AMS | human, plasma | oral, 100 ng of [14C]-BaP | 104 ± 213 fg BaP equivalents·h/mL |
| Cc1ncc2n1-c1ccc(Cl)cc1C(c1ccccc1F)=NC2 | – | healthy human volunteers, plasma | oral, 5 mg single dose, geometric mean, together with: water | 0.215 µM·h |
| Cc1ncc2n1-c1ccc(Cl)cc1C(c1ccccc1F)=NC2 | – | healthy human, plasma | oral, 2 mg, together with: efavirenz 50 mg, no ritlecitinib | 0.0204 µg·h/mL |
| CC[C@@]1(O)C(=O)OCc2c1cc1n(c2=O)Cc2cc3c(CN(C)C)c(O)ccc3nc2-1 | – | human patients, plasma | oral, 2.5 mg daily for 5 days, day 5 cycle 2, geometric mean, together with: pazopanib 800 mg daily | 0.0532 µg·h/mL |
| Cc1ncc(OC[C@@]2(c3cccc(F)c3)C[C@H]2C(=O)Nc2ccc(F)cn2)c(C)n1 | – | human, plasma | 10 mg, alone, mean | 0.39 µg·h/mL |
| COc1ccc(C[C@@H]2NC(=O)[C@H]([C@@H](C)O)NC(=O)[C@@H]3[C@@H]4CCN3C(=O)[C@@H]3Cc5cn(c6ccc(F)cc56)CCCCCCN(Cc5ccc(cc5)CCNC(=O)[C@]5(C)CCCN5C2=O)C(=O)CCC(=O)N[C@@H](C)C(=O)N[C@H](CNC(=O)CCCCC[N+](C)(C)C)C(=O)N[C@@H](Cc2cccc(c2)CNC(=O)CO4)C(=O)N3)cc1 | – | fasted healthy humans, plasma | oral, 100 mg single dose, with 1800 mg Labrasol, geometric mean | 1.08 µM·h |
| O[C@H]1CCCN[C@@H]1CCCn1cnc2c(Cl)c(Cl)ccc21 | – | human, plasma | oral, 100 mg single dose, solution, geometric mean | 0.293 µg·h/mL |
| CCCCCOc1ccc(-c2ccc(-c3ccc(C(=O)N[C@H]4C[C@@H](O)[C@@H](OCC[N+](C)(C)C)NC(=O)[C@@H]5[C@@H](O)[C@@H](C)CN5C(=O)[C@H]([C@@H](C)O)NC(=O)[C@H]([C@H](O)[C@@H](O)c5ccc(O)cc5)NC(=O)[C@@H]5C[C@@H](O)CN5C(=O)[C@H]([C@@H](C)O)NC4=O)cc3)cc2)cc1 | – | healthy adult humans, plasma | subcutaneous, 10 mg, median | 37.1 µg·h/mL |
| CC[C@H](C)[C@H](NC(=O)[C@H](CC(C)C)NC(=O)[C@H](Cc1c[nH]c2ccccc12)NC(=O)[C@H](CCC(N)=O)NC(=O)[C@@H](NC(=O)[C@H](Cc1ccccc1)NC(=O)[C@H](C)NC(=O)[C@H](CCCCNC(=O)COCCOCCNC(=O)COCCOCCNC(=O)CC[C@H](NC(=O)CCCCCCCCCCCCCCCCCCC(=O)O)C(=O)O)NC(=O)[C@H](CCC(N)=O)NC(=O)[C@H](C)NC(=O)[C@@H](NC(=O)[C@H](CCCCN)NC(=O)[C@H](CC(=O)O)NC(=O)[C@H](CC(C)C)NC(=O)C(C)(C)NC(=O)[C@@H](NC(=O)[C@H](CO)NC(=O)[C@H](Cc1ccc(O)cc1)NC(=O)[C@H](CC(=O)O)NC(=O)[C@H](CO)NC(=O)[C@@H](NC(=O)[C@H](Cc1ccccc1)NC(=O)[C@@H](NC(=O)CNC(=O)[C@H](CCC(=O)O)NC(=O)C(C)(C)NC(=O)[C@@H](N)Cc1ccc(O)cc1)[C@@H](C)O)[C@@H](C)O)[C@@H](C)CC)[C@@H](C)CC)C(C)C)C(=O)N[C@@H](C)C(=O)NCC(=O)NCC(=O)N1CCC[C@H]1C(=O)N[C@@H](CO)C(=O)N[C@@H](CO)C(=O)NCC(=O)N[C@@H](C)C(=O)N1CCC[C@H]1C(=O)N1CCC[C@H]1C(=O)N1CCC[C@H]1C(=O)N[C@@H](CO)C(N)=O | – | human, moderate hepatic impairment, plasma | subcutaneous, 5 mg | 84.1 µg·h/mL |
| CC[C@H](C)[C@H](NC(=O)[C@H](CC(C)C)NC(=O)[C@H](Cc1c[nH]c2ccccc12)NC(=O)[C@H](CCC(N)=O)NC(=O)[C@@H](NC(=O)[C@H](Cc1ccccc1)NC(=O)[C@H](C)NC(=O)[C@H](CCCCNC(=O)COCCOCCNC(=O)COCCOCCNC(=O)CC[C@H](NC(=O)CCCCCCCCCCCCCCCCCCC(=O)O)C(=O)O)NC(=O)[C@H](CCC(N)=O)NC(=O)[C@H](C)NC(=O)[C@@H](NC(=O)[C@H](CCCCN)NC(=O)[C@H](CC(=O)O)NC(=O)[C@H](CC(C)C)NC(=O)C(C)(C)NC(=O)[C@@H](NC(=O)[C@H](CO)NC(=O)[C@H](Cc1ccc(O)cc1)NC(=O)[C@H](CC(=O)O)NC(=O)[C@H](CO)NC(=O)[C@@H](NC(=O)[C@H](Cc1ccccc1)NC(=O)[C@@H](NC(=O)CNC(=O)[C@H](CCC(=O)O)NC(=O)C(C)(C)NC(=O)[C@@H](N)Cc1ccc(O)cc1)[C@@H](C)O)[C@@H](C)O)[C@@H](C)CC)[C@@H](C)CC)C(C)C)C(=O)N[C@@H](C)C(=O)NCC(=O)NCC(=O)N1CCC[C@H]1C(=O)N[C@@H](CO)C(=O)N[C@@H](CO)C(=O)NCC(=O)N[C@@H](C)C(=O)N1CCC[C@H]1C(=O)N1CCC[C@H]1C(=O)N1CCC[C@H]1C(=O)N[C@@H](CO)C(N)=O | – | human end-stage renal disease on dialysis, plasma | subcutaneous, 5 mg single, geometric mean | 93.4 µg·h/mL |
| CN[C@@H]1C[C@H]2O[C@@](C)([C@@H]1OC)n1c3ccccc3c3c4c(c5c6ccccc6n2c5c31)C(=O)N[C@@H]4O | – | human patients | intravenous infusion, 34 mg/m^2/24 h, 72 h infusion, cycle 1, mean, together with: prednisone | 8350 µg·h/mL |
| Oc1ccc2ccc3c4ccccc4cc4ccc1c2c43 | UPLC-AMS | human, plasma | oral, 250 ng of [14C]-BaP | 63.1 ± 62 fg BaP equivalents·h/mL |
| O=c1[nH]c(Cc2ccccn2)nc2c1cnn2C1CCOCC1 | – | healthy male human, plasma | oral, 10 mg, geometric mean | 0.476 µM·h |
